Assay results gathered from unrelated publications.
Numbered parts are unrelated; each lists some results of a single study.

Set 1 — technique: universal PBM; molecule type: double-stranded DNA, one strand shown; sample: in vitro; concentration: not given; reading: higher = stronger binding
Target: Sal-like protein 4, full length isoform B (SALL4, Homo sapiens, UniProt Q9UJQ4-2, residues 1-616)
Setting: 8-mer, flanks averaged, mean of replicates
Construct (chain): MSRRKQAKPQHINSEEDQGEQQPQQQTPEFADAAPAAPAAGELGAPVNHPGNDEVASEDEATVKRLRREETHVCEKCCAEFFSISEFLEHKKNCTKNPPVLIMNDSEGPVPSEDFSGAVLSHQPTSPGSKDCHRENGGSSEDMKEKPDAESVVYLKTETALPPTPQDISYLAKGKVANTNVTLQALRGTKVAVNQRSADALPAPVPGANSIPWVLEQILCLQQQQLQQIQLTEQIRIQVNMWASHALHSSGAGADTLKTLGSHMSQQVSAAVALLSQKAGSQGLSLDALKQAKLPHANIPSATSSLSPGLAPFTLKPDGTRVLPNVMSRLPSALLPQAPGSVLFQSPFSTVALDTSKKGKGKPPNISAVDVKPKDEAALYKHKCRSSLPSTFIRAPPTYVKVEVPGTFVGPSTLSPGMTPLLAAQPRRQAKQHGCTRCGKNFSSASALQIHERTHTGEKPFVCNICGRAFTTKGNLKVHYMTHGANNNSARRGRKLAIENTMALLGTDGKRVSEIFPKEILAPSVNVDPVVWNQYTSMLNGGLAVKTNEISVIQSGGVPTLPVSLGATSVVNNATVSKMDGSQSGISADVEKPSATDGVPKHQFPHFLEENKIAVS
Sequence	E-score
CACATAAA	0.332
GGGGTCCA	-0.338
CGCTCAGA	-0.196
TAGTCCAA	-0.0457
GTTGACTA	0.0393
ATCCTGGC	-0.133

Set 2 — technique: RNA Bind-n-Seq; molecule type: RNA; sample: in vitro; concentration: not given; relative to: input RNA pool; reading: higher = stronger binding
Target: RING finger protein unkempt homolog, zinc fingers 1-6, GST-SBP tag (UNK, Homo sapiens, UniProt Q9C0B0, residues 30-357)
Setting: RNA with constant flanks, human-mouse chimeric sites, ends assumed
Constant ends, left off below: GGGAGUUCUACAGUCCGACGAUC … CAACAGAGGAUUGAGCAUCA
Target sequence (chain): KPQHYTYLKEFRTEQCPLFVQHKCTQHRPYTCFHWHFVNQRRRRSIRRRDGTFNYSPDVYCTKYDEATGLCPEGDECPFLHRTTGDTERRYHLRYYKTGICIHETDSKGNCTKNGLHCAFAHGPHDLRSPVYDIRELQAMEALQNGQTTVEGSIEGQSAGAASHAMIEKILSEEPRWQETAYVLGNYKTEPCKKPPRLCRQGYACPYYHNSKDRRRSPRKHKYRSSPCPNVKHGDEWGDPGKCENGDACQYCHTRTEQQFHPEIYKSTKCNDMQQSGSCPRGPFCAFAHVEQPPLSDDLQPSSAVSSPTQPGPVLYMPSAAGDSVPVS
Sequence	bound/input enrichment
UGUAGUUUCGCGGUUCAGGCUUUGUGUGUAGUUCACUUACGGUAUUAAAUUAUUAUUGCCCUUAGUUUAUAAUAAGGAUAAUUGCAUUUAAAGAGGUUACUGAAUGUUACUCUGAAACUU	0.585 ratio
GGAAGUACAAUGAUGGAGAUUGAUGGUGACAAAGGCAAGCAGGGCGGGCCCACCUACUACAUAGACACUAAUGCUCUCCGCGUGCCCAGGGAGAACAUGGAGGCCAUCUCACCACUCAAG	0.525 ratio
CUUAAUGUUAAUAUUUUUGAAUAAAUGAAGCUAAAAUUUUGCUUUCUGGUACAACACGCAUUAAUAAAAGGUUAAGUAAGUUUUGUUACUGAAGUACUAUUUAACAUCUCAGAAAAAAAC	0.308 ratio
UCUUUAAAAAAAAAAUUACAGGAAAAUACAGUGCUUUCCCUCCCAUAGAUCCACGUUCAAGCUCAAAGAGCAAAGGCUCCGCAAACAGCUCAAACAUCUGAUGAAGAAAGAUUUCUGAGA	0.937 ratio
GAGCGUCUUGCCCGCACUGGGAUCAUCGUGACCACGAGUGAGGCUGUUCUGCUUCAGCUGGUGGCUGACAAAGACCACCCGAAGUUCAAGGAAAUUCAGAACCUAAUUAAGGCGAGUGCC	0.0862 ratio
UUACCCGAGAACGAGGAUGAGCUGGAGAGCACCAACAGGCGCUACACCAAGAGGGACUGUAGCACUUUCCUCAGAACUAGUGAGACGGGCAUUGUGGACCAGGUCAUGGUCACUCUCAAC	0.28 ratio
GUGCCCUUCUCGCUGCUGCGGAGCCCGCCCAGCUGGGCAUUCCGGGACUGGUACCCUGCACACAGCCGCCUCUUCGACCAGGCCUUCGGGGUGCCCCGGUUGCCCGAUGAGUGGUCGCAG	0.066 ratio

Set 3 — technique: RNA Bind-n-Seq; molecule type: RNA; sample: in vitro; concentration: 365 nM; relative to: no-protein control; reading: higher = stronger binding
Target: RNA binding protein fox-1 homolog 2, RRM domain, GST-SBP tag (RBFOX2, Homo sapiens, UniProt O43251-10, residues 100-194)
Setting: natural RNA segment, single round, ends assumed
Constant ends, left off below: GGGAGUUCUACAGUCCGACGAUC … UGGAAUUCUCGGGUGCCAA
Residues (chain): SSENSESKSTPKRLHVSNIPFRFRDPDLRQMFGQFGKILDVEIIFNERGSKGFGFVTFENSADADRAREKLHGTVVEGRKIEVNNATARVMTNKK
Sequence	RBNS enrichment (R)
AAGAUCAAGUGCUGGAGGCCGGAGCCAUCUGUGAGCCUCCCUAAGCCACAGCAGUGAGGAGAUUUGUGUGCUGGGGCACUCAAAAGCCUCUACAAGAUCUUCGUUAAGAG	0.362
AACAUAAAAGGAAAGCUGGCAGUGGGUCUUGGUAAUAUAUGAACUAUAUUAGAGUGCCAGAAAAGGAGACCUCAGAAGUUAAGCAUAGGUUGCCAAUCUGCUACAAUUAU	1.02
UCUCCUGCCUACUCACGAUAAAUAAUCGGCCCACAGCUCCCACCCCACCCCCUUCAGUGCCCACCAACAUCCCAUUGCCCUGGUUAUAUUCUCACGGGCAGUAGCUGUGG	0.232
ACGGGAGCUUAACUUUAUAAGGAAAUGUAUUUUGACACUGAUAUCUUAUUAAAGUAUUCUGAUCCUAUCCUGCUCGUGCCUCUUGUUUUCUGUGCAUUUACCGUGGACUG	1.17
CAUAAAUUUGGAGAAAAUAAUAUGACUAGAAAAAUUAGUGUUAUAUUGGGUGUGAGAAAAGACUGUGUCUUGAAAGAAUUAUCAAAGCUGAUACAGCACAUAUACAGAAU	1.29
UGAGAGUGAGCUGUAGGUGUGCGGGACCGGUACAGAAAGGCGUUCUUCGAGGUGGAUCACAGAGGCUUCUUCAGAUCAGUGCUUGAGUUUGGGGAAUGCGGCCGCAUUCC	0.793
UCAGCUAUGACAGCUGGUGUGGAGUAGAAGGGCAACUAGUUCUGUUAUUUAUUGAACAUUUGGGGUUUCAGUUGUAAAGCCACAACUACAGGUAGGACCUGAUAUUUCGG	0.403
CUGAACAAACCCUGUAUCAAGUAUCUGAAAUUUAAGGAGAUCAAACAGACUGUGACCAAGGUCCUGUUGAGAAUUUAACAAGGCAAAAUCUGUCCUGUCACAGAAGUUUC	0.331

Single results of other studies
Substance	target	assay	system	conditions	how to read	quantity	value
PhoQ, residues 284 288 289 292 302 303 AGGCYF	PhoP, residues 12 14 15 18 19 QQAYL (Escherichia coli, UniProt P23836)	Sort-seq, item: YFP reporter	E. coli	PhoQ-PhoP variant library, together with: 10 µM Mg2+	relative to: high Mg2+ state, higher = stronger signaling	fold induction	2.71
